Measurements gathered from unrelated publications.
Compare with care: the assays were run in different laboratories. Values joined by “and” are separate records of one study, mostly repeats; a detail may differ. ± marks the error that the study gave.
SCN9A: Sodium channel protein type 9 subunit alpha (SCN9A, Homo sapiens, UniProt Q15858)
bglR: Beta-glucuronidase (bglR, Clostridium perfringens, UniProt Q8XP19)
Spike glycoprotein: Spike glycoprotein (Severe acute respiratory syndrome coronavirus 2, UniProt P0DTC2)
OPG122: mRNA-decapping protein OPG122 (OPG122, Vaccinia virus, UniProt P04312)
Replicase polyprotein 1a papain-like protease: Replicase polyprotein 1a, papain-like protease (Severe acute respiratory syndrome coronavirus 2, UniProt P0DTC1)

| Compound | target | test | test system | conditions | IC50 |
| --- | --- | --- | --- | --- | --- |
| CCC(CC)O[C@@H]1C=C(C(=O)O)C[C@H](NCc2ccc(N3CC[C@@H](F)C3)cc2)[C@H]1NC(C)=O | Neuraminidase (NA, Influenza A virus, UniProt P03468) | enzyme activity, inhibitor | – | – | 0.37 µM |
| CC[C@H](C)[C@@H]1NC(=O)[C@@H]2CSSC[C@H](NC(=O)[C@H](CCCNC(=N)N)NC(=O)[C@@H]3CSSC[C@H](NC1=O)C(=O)N[C@@H]([C@@H](C)O)C(=O)N[C@@H](CCCNC(=N)N)C(=O)NCC(=O)N[C@@H](Cc1ccccc1)C(=O)N3)C(=O)N[C@@H](Cc1ccccc1)C(=O)N[C@H]1CSSC[C@H](NC(=O)[C@H](CO)NC(=O)[C@H](CO)NC(=O)[C@H](CCCNC(=N)N)NC(=O)CNC1=O)C(=O)N[C@@H](CC(=O)O)C(=O)N2 | Lethal factor (Bacillus anthracis, UniProt P15917) | enzyme activity, inhibitor | – | – | 1.2 ± 0.084 µM |
| CC(C)C[C@H](NC(=O)[C@H](CC(=O)O)NC(=O)[C@H](Cc1ccc(O)cc1)NC(=O)[C@H](CCCCN)NC(=O)[C@@H]1CSSC[C@@H]2NC(=O)[C@H](CCCCN)NC(=O)[C@H](CC(=O)O)NC(=O)[C@H](CC(N)=O)NC(=O)[C@H](CO)NC(=O)[C@@H]3CCCN3C(=O)[C@H](CC(N)=O)NC(=O)[C@@H]3CSSC[C@H](NC(=O)[C@H](C(C)C)NC(=O)[C@H](CC(C)C)NC(=O)[C@H](CO)NC(=O)[C@H](CO)NC(=O)[C@H](CO)NC(=O)[C@H](CCCCN)NC(=O)[C@H](CSSC[C@H](NC(=O)[C@H](C)N)C(=O)N[C@@H](CC(C)C)C(=O)NCC(=O)N[C@@H](Cc4ccccc4)C(=O)NCC(=O)N[C@@H](CCC(=O)O)C(=O)N[C@@H](CCCCN)C(=O)N3)NC2=O)C(=O)N[C@@H](CO)C(=O)N[C@@H](CCC(N)=O)C(=O)N[C@@H](CCCCN)C(=O)N[C@@H](CCCCN)C(=O)N[C@@H](CCCCN)C(=O)N[C@@H](Cc2c[nH]c3ccccc23)C(=O)N1)C(=O)O | SCN9A | ion current, inhibitor, patch clamp | – | – | > 20 µM |
| CN(C)c1nc(N2CCNCC2)c2sc3nc(-c4ccccc4)ccc3c2n1 | bglR | – | – | – | 0.071 ± 0.002 µM |
| O=C(/C=C/c1ccc(O)c2oc(-c3ccc(O)c(O)c3)cc12)O[C@H](Cc1ccc(O)c(O)c1)C(=O)O | Spike glycoprotein | cell-free assay, FP | – | – | 8.9 µM |
| Nc1nc2c(ncn2C2CC(O)C(COP(=O)(O)OP(=O)(O)OP(=O)(O)O)O2)c(=O)[nH]1 (stereo not drawn) | OPG122 | – | – | – | 27 µM |
| Cc1ccc(N2CC(N3CCC(C)(O)CC3)C2)cc1C(=O)NC1(c2ccc3c4c(cccc24)CC3)CC1 | Replicase polyprotein 1a papain-like protease | cell-free assay | – | – | 0.002 µM |
| C1CCc2c(c(N3CCOCC3)nc3sc4c(N5CCOCC5)nnnc4c23)C1 | bglR | – | – | – | > 100 µM |
| O=C(O[C@@H]1Cc2c(O)cc(O)cc2O[C@@H]1c1cc(O)c(O)c(O)c1)c1cc(O)c(O)c(O)c1 | Replicase polyprotein 1a, main protease (Severe acute respiratory syndrome-related coronavirus, UniProt P0C6U8) | enzyme activity, inhibitor | – | – | ≥ 100 µM |
| CC[C@H](C)[C@H](NC(=O)[C@H](Cc1c[nH]cn1)NC(=O)[C@H](Cc1ccc(O)cc1)NC(=O)[C@H](CCCCN)NC(=O)[C@@H]1CSSC[C@@H]2NC(=O)[C@H](CCC(=O)O)NC(=O)[C@H](CC(=O)O)NC(=O)[C@H](C)NC(=O)CNC(=O)[C@H](Cc3ccc(O)cc3)NC(=O)[C@H](CCCCN)NC(=O)[C@@H]3CSSC[C@H](NC(=O)[C@H](C(C)C)NC(=O)[C@H](Cc4ccc(O)cc4)NC(=O)CNC(=O)[C@H](CCCCN)NC(=O)[C@H](CSSC[C@H](NC(=O)[C@@H](N)CO)C(=O)N[C@@H](CCCCN)C(=O)N[C@@H](C(C)C)C(=O)N4CCC[C@H]4C(=O)N[C@@H](Cc4ccccc4)C(=O)N[C@@H](CC(N)=O)C(=O)N[C@@H](CCC(=O)O)C(=O)N3)NC2=O)C(=O)N[C@@H](CO)C(=O)N[C@@H](CCCCN)C(=O)N[C@@H](CCCNC(=N)N)C(=O)N[C@@H](CC(=O)O)C(=O)NCC(=O)N[C@@H](Cc2c[nH]c3ccccc23)C(=O)N1)C(=O)N[C@@H](CC(N)=O)C(=O)O | SCN9A | ion current, inhibitor, patch clamp | – | – | 9.22 µM |
| Cc1ccc(N2CC3CC(C2)N3C)cc1C(=O)NC1(c2ccc3c4c(cccc24)C(=O)N3C)CC1 | Replicase polyprotein 1a papain-like protease | cell-free assay | – | – | 0.0054 µM |
| CCCCCCCCOC1OC(C)C(OC2OC(C)C(OC3OC(C)C(OC4OC(C)C(OS(=O)(=O)O)C(OS(=O)(=O)O)C4OS(=O)(=O)O)C(OS(=O)(=O)O)C3OS(=O)(=O)O)C(OS(=O)(=O)O)C2OS(=O)(=O)O)C(OS(=O)(=O)O)C1OS(=O)(=O)O (stereo not drawn) | Spike glycoprotein | – | – | – | 30.3 µM |
| COC1C(O)C(COP(=O)(O)OP(=O)(O)OP(=O)(O)O)OC1n1cnc2c(=O)[nH]c(N)nc21 (stereo not drawn) | OPG122 | – | – | – | 27 µM |
| CC(C)(O)[C@@H]1CC[C@](C)([C@H]2[C@@H](O)C[C@@]3(C)[C@@H]4C[C@H](O)[C@H]5C(C)(C)[C@@H](O)CC[C@@]56C[C@@]46CC[C@]23C)O1 | Spike glycoprotein | spike RBD-ACE2 binding, inhibitor, ELISA | – | – | > 40 µM |
| CCC(C(=O)Nc1ccccc1OC)n1cccc2nc(SCc3ccc(F)cc3)nc1-2 (stereo not drawn) | Replicase polyprotein 1ab, papain-like protease (rep, Middle East respiratory syndrome-related coronavirus, UniProt K9N7C7) | enzyme activity, inhibitor | – | – | > 100 µM |
| CC(C)C[C@@H]1NC(=O)[C@H](CCCNC(=N)N)NC(=O)[C@@H]2CCCN2C(=O)[C@@H]2CSSC[C@H](NC(=O)CNC(=O)[C@@H]3CCCN3C(=O)[C@H](CCCCN)NC(=O)[C@H](CC(=O)O)NC(=O)[C@@H](NC(=O)CN)C(C)C)C(=O)N[C@@H](CCCNC(=N)N)C(=O)N[C@@H](Cc3ccc(O)cc3)C(=O)N[C@@H](CC(C)C)C(=O)N[C@@H](Cc3ccccc3)C(=O)NCC(=O)NCC(=O)N[C@H]3CSSC[C@H](NC(=O)CNC1=O)C(=O)N[C@@H](CCCCN)C(=O)NCC(=O)N[C@@H](CCCCN)C(=O)NCC(=O)N[C@@H](Cc1c[nH]cn1)C(=O)N[C@@H](CC(=O)O)C(=O)N[C@@H](Cc1ccc(O)cc1)C(=O)N[C@H](C(=O)N[C@@H](C)C(=O)N[C@@H](Cc1c[nH]c4ccccc14)C(=O)N[C@@H](CC(=O)O)C(=O)NCC(=O)N[C@H](C(=O)N[C@@H](Cc1ccccc1)C(=O)N[C@@H](CO)C(=O)N[C@@H](CC(=O)O)C(=O)O)[C@@H](C)O)CSSC[C@H](NC(=O)[C@H](CC(=O)O)NC(=O)[C@H](CC(=O)O)NC(=O)[C@H](CC(=O)O)NC(=O)[C@H](CO)NC(=O)[C@H](CCCCN)NC3=O)C(=O)N2 | SCN5A (Homo sapiens, UniProt Q14524) | peak sodium current, inhibitor, automated patch clamp | HEK293 | holding potential -90 mV, together with: 0.1 % BSA | 2.19 µM |
| O=C(NCCOC(=O)[C@@H]1CCCCN1S(=O)(=O)Cc1ccccc1)c1cccnc1 | Peptidyl-prolyl cis-trans isomerase (Burkholderia pseudomallei, UniProt Q63J95) | enzyme activity, inhibitor | – | – | 0.42 µM |
| CC1=C(C(=O)Nc2ccc(F)cc2)C(c2ccccc2Cl)NC(=S)N1 (stereo not drawn) | Angiotensin-converting enzyme 2, with SARS-CoV-2 spike RBD (ACE2, Homo sapiens, UniProt Q9BYF1) | inhibitor | – | – | ~0.0125 µM and 0.0125 µM |
| Nc1nc(S)c2ncn(C3OC(COP(=O)(O)OP(=O)(O)OP(=O)(O)O)C(O)C3O)c2n1 (stereo not drawn) | OPG122 | – | – | – | > 200 µM |
| CC(=O)NC1C(O)C=C(C(=O)O)OC1C(O)C(O)CO (stereo not drawn) | Sialidase (nanI, Clostridium perfringens, UniProt A0A0H2YQR1) | enzyme activity, inhibitor | – | – | 17 µM |
| CC(C)C[C@H](NC(=O)[C@H](CC(=O)O)NC(=O)[C@H](Cc1ccc(O)cc1)NC(=O)[C@H](CCCCN)NC(=O)[C@@H]1CSSC[C@@H]2NC(=O)[C@H](CCCCN)NC(=O)[C@H](CC(=O)O)NC(=O)[C@H](CC(N)=O)NC(=O)[C@H](CO)NC(=O)[C@@H]3CCCN3C(=O)[C@H](CC(N)=O)NC(=O)[C@@H]3CSSC[C@H](NC(=O)[C@H](C(C)C)NC(=O)[C@H](CC(C)C)NC(=O)[C@H](CO)NC(=O)[C@H](CO)NC(=O)[C@H](CO)NC(=O)[C@H](CCCCN)NC(=O)[C@H](CSSC[C@H](NC(=O)[C@H](C)N)C(=O)N[C@@H](CC(C)C)C(=O)NCC(=O)N[C@@H](Cc4ccccc4)C(=O)NCC(=O)N[C@@H](CCC(=O)O)C(=O)N[C@@H](CCCCN)C(=O)N3)NC2=O)C(=O)N[C@@H](CO)C(=O)N[C@@H](CCC(N)=O)C(=O)N[C@@H](CCCCN)C(=O)N[C@@H](Cc2c[nH]cn2)C(=O)N[C@@H](CCCCN)C(=O)N[C@@H](CCCCN)C(=O)N1)C(=O)O | SCN9A | ion current, inhibitor, patch clamp | – | – | > 20 µM |
